Experimental data collected from several papers.
Lines come from different studies, so protocols differ. ± marks the error that the study gave.
Cell line: MCF7

SMILES | assay | setting | IC50 [µM]
Cc1c(COc2cc(OCc3cccc(C#N)c3)c(CN3CCCC[C@H]3C(=O)O)cc2Cl)cccc1-c1cccc(OCCCCCC(=O)NO)c1 | cell growth or viability, CCK-8 | 48 h | 16.1
O=C(O)C(CO)NCc1cc(Cl)c(OCc2cccc(-c3ccccc3)c2Br)cc1OCc1cccnc1 (stereo not shown) | cell growth or viability, MTT |  | > 10
CC(=O)[O][Pd][c]1cc(C)ccc1N1N=C(C)C(C)(C)C1=O.CC(=O)[O][Pd][c]1cc(C)ccc1N1N=C(C)C(C)(C)C1=O | cell growth or viability, MTT |  | 30.6
O=C1CS/C(=N\N=C\c2cccc3cc4ccccc4nc23)N1c1ccccc1 | cell growth or viability, MTT | 48 h | > 50
NC(=O)c1ccc(-c2ccccc2Cl)c2c3c([nH]c12)CC[C@@H](N)C3 | cell growth or viability |  | 0.0179
O=C(c1ccc(Br)cc1)N1CCN(CC(OCc2ccc3ccccc3c2)c2ccc(Cl)cc2Cl)CC1 (stereo not shown) | cell growth or viability, MTT | 24 h | > 50
Clc1ccnc2c1ccc1c(Cl)ccnc12.[Co+2].[O-]c1c(Br)cc(Br)c2cccnc12.[O-]c1c(Br)cc(Br)c2cccnc12 | cell growth or viability, MTT | 48 h | 20.1
CC(C)c1ccc(N(C)c2ccc3c(c2)OCC[C@H]3CNc2cnccc2C(=O)O)cc1 | cell growth or viability, MTS | 7 days | 0.037
CN(C)C(=S)NN=C(c1ccccn1)c1ccccn1 | cell growth or viability, MTT | 48 h | 0.58
Clc1ccc(C(Cn2cnc3ccccc32)OCc2ccc(Br)cc2)c(Cl)c1 (stereo not shown) | cell growth or viability, MTT | 24 h | 42.9
C[C@]12CC[C@@H]3c4ccc(OS(=O)(=O)Oc5ccc6ccc(=O)[nH]c6c5)cc4CC[C@H]3[C@@H]1CCC2=O |  | 72 h | 5
CCC(=CCc1c(O)cc2c(c1O)C(=O)CC(c1ccc(OC)c(O)c1)O2)CC (stereo not shown) | cytotoxicity, MTT | 48 h, as reported | 18.3 ± 1.2
Nc1ncc(-c2nc(N3CCOCC3)nc(N3CCN(C(=O)CCC(=O)NCCCCCCCCCCCCNc4cccc5c4C(=O)N(C4CCC(=O)NC4=O)C5=O)CC3)n2)c(C(F)F)n1 (stereo not shown) | inhibitor, In-Cell Western, item: Akt pSer473 | 2 h | 0.029
CCOC(=O)/C=C1\S/C(=N\N=C\c2cccc3cc4ccccc4nc23)N(c2ccc([N+](=O)[O-])cc2)C1=O | cell growth or viability, MTT | 48 h | > 50
O=C1/C(=N\c2ccc(Cl)cc2Br)c2ccccc2N1C(=O)c1ccccc1 | cell growth or viability, MTT | 48 h | > 100
COc1cccc(CNC[C@@](O)(COCc2ccccc2)[C@@H]2CC[C@@H](C)C[C@H]2OCc2ccccc2)c1 | cell growth or viability, MTT | 72 h | 1.48
CN1C(=O)CCC(N2C(=O)c3cccc(NCCCCCCCCCNC(=O)CCC(=O)N4CCN(c5nc(-c6cnc(N)nc6C(F)F)nc(N6CCOCC6)n5)CC4)c3C2=O)C1=O (stereo not shown) | inhibitor, In-Cell Western, item: Akt pSer473 | 2 h | 0.125
COc1ccc(COC[C@](O)(CNCc2ccc(F)cc2)[C@@H]2CC[C@@H](C)C[C@H]2OCc2ccc(OC)cc2)cc1 | cell growth or viability, MTT | 72 h | 1.32
CNC(=S)NN=Cc1ccc([N+](=O)[O-])o1 | cell growth or viability, resazurin |  | 30.1

SMILES | assay | setting | IC50 [µM]
CCOC(=O)/C=C1\S/C(=N\N=C\c2cccc3cc4ccccc4nc23)N(CC(C)C)C1=O | cell growth or viability, MTT | 48 h | > 50
Cc1c(C)c2cccnc2c2ncccc12.Cc1ccc2c(Cl)cc(Cl)c([O-])c2n1.Cc1ccc2c(Cl)cc(Cl)c([O-])c2n1.[Co+2] | cell growth or viability, MTT | 48 h | 5.67
Clc1ccc(C(Cn2cncn2)OCc2ccc(Br)cc2)c(Cl)c1 (stereo not shown) | cell growth or viability, MTT | 24 h | 39.4
Nc1ncc(-c2nc(N3CCOCC3)nc(N3CCN(C(=O)CCC(=O)NCCCCCCCNc4cccc5c4C(=O)N(C4CCC(=O)NC4=O)C5=O)CC3)n2)c(C(F)F)n1 (stereo not shown) | inhibitor, In-Cell Western, item: Akt pSer473 | 2 h | 0.0441
Cc1c(COc2cc(OCc3cccc(C#N)c3)c(CNCCO)cc2Cl)cccc1-c1cccc(OCCCCCCC(=O)NO)c1 | cell growth or viability, CCK-8 | 48 h | 15.7
C[C@@H]1CC[C@@H]([C@](O)(CNCc2ccc(F)cc2)COCc2ccccc2)[C@H](OCc2ccccc2)C1 | cell growth or viability, MTT | 72 h | 10.4
CCC(=CCc1c(O)cc2c(c1O)C(=O)CC(c1ccc(O)cc1)O2)CC (stereo not shown) | cytotoxicity, MTT | 48 h, as reported | 20.6 ± 3.9
Cc1nc(N(C)c2ccc3c(c2)/C(=C/c2cn(C)c4ccccc24)C(=O)N3C)c2ccccc2n1 | cell growth or viability, MTT |  | 1
Cc1ccnc(-c2cc(C)ccn2)c1 | cell growth or viability, MTT | 48 h | > 50
Nc1cc2cccnc2c2ncccc12.[Cl-].[Cl-].[Ru+2].c1cnc2c(c1)ccc1cccnc12.c1cnc2c(c1)ccc1cccnc12 | cell viability, MTT | 1 h preincubation, then 48 h, with: blue light | 56.8 ± 1.22
CC(C)(C)OC(=O)N1CCN(CC(OCc2ccc(Br)cc2)c2ccc(Cl)cc2Cl)CC1 (stereo not shown) | cell growth or viability, MTT | 24 h | 24.1
COc1ccc(CN2C3(NC(c4ccc(OC)cc4)C24C(=O)Nc2ccccc24)C(=O)Nc2ccccc23)cc1 (stereo not shown) | cell growth or viability, MTT | 48 h | 61.4
Cc1ccc(C(=O)N2CCN(CC(OCc3ccc4ccccc4c3)c3ccc(Cl)cc3Cl)CC2)cc1 (stereo not shown) | cell growth or viability, MTT | 24 h | 38.4
Cc1nc(Nc2ccc3c(c2)/C(=C/c2ccccc2)C(=O)N3)c2ccccc2n1 | cell growth or viability, MTT |  | 31.3
O=C1/C(=N\c2ccccc2Br)c2ccccc2N1Cc1ccc([N+](=O)[O-])cc1 | cell growth or viability, MTT | 48 h | 2.9
Cc1c(C)c2cccnc2c2ncccc12 | cell growth or viability, MTT | 48 h | > 50
O=C1Nc2ccccc2C12NC(c1ccc(F)cc1)C1(C(=O)Nc3ccccc31)N2Cc1ccc(F)cc1 (stereo not shown) | cell growth or viability, MTT | 48 h | 32.1
CCNC(=S)NN=Cc1ccc([N+](=O)[O-])o1 | cell growth or viability, resazurin |  | 39.1

Repeated from above:
SMILES | assay | setting | IC50 [µM]
O=C1/C(=N\c2ccccc2Br)c2ccccc2N1Cc1ccc([N+](=O)[O-])cc1 | cell growth or viability, MTT | 48 h | 2.9
CNC(=S)NN=Cc1ccc([N+](=O)[O-])o1 | cell growth or viability, resazurin |  | 30.1
CCOC(=O)/C=C1\S/C(=N\N=C\c2cccc3cc4ccccc4nc23)N(CC(C)C)C1=O | cell growth or viability, MTT | 48 h | > 50
C[C@]12CC[C@@H]3c4ccc(OS(=O)(=O)Oc5ccc6ccc(=O)[nH]c6c5)cc4CC[C@H]3[C@@H]1CCC2=O |  | 72 h | 5
